# Published values collected from several papers.
# Each numbered part is a random draw from the data of one study; scales do not carry over between parts. Substitutions count along the parent as printed.

# Sample 1
# Target: Prothrombin, mature alpha-thrombin (F2, Homo sapiens, UniProt P00734)
# Method: aptamer microarray, sandwich
# Form: DNA with 2'F-ANA
# Medium: in vitro
# Concentration: 200 nM
# Notes: whole 15-mer aptamer, many near background
# With: Cy3 exosite-II aptamer, 400 nM
# Reading: higher = stronger binding
# Strand: GGTTGGTGTGGTTGG
Modification,mean fluorescence intensity [a.u.]
2'F-ANA at 2 4 6 7 9 14,81.9
2'F-ANA at 2 3 4 9 10 11 13 14 15,231
2'F-ANA at 1 2 11 12 13 14 15,63.5
2'F-ANA at 1 4 5 7 8 9 12 14 15,57.5
2'F-ANA at 7 8 9 12 13 14,288
2'F-ANA at 1 4 5 10 11 12 14,42.1
2'F-ANA at 2 4 6 7 12 15,492
2'F-ANA at 1 2 4 6 10 11 15,62.4

# Sample 2
# Target: TAR DNA-binding protein 43, full length, His tag (TARDBP, Homo sapiens, UniProt Q13148, residues 1-414)
# Method: RNA Bind-n-Seq
# Form: RNA
# Medium: in vitro
# Concentration: 20 nM
# Notes: 6-mer, flanks averaged, single round
# With: 150 mM LiCl
# Relative to: input library
# Reading: higher = stronger binding
Strand,6-mer enrichment (R)
UUUUCG,1.08
CCCCCA,1.34
GAACUA,0.858
UUUGUU,1.51
CCAUUU,1.07
CAAAUG,0.897
UCUCGC,0.831
AAUGAA,0.978

# Other studies, line by line
# P1: PafA, mature enzyme, eGFP fusion (Elizabethkingia meningoseptica, UniProt Q9KJX5); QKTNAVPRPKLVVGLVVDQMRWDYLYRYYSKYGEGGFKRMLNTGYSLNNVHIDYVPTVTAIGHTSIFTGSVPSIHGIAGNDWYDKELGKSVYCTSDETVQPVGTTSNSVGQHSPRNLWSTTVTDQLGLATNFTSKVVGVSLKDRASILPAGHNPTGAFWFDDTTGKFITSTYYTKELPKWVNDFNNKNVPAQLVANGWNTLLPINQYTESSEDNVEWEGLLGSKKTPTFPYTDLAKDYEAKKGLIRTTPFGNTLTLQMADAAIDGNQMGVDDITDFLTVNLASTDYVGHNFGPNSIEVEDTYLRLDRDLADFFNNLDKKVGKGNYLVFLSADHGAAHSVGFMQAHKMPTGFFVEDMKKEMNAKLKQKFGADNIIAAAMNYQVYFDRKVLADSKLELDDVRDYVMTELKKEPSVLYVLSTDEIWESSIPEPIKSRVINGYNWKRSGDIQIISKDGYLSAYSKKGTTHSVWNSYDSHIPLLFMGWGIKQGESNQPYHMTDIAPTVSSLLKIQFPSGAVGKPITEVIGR
Substance,target,assay,system,conditions,scale,quantity,value
P1 V12G,"vanadate, free oxyanion",microfluidic competitive inhibition,"in vitro, cell-free expressed","not given, derived from inhibition constants, unchanged parent 676 nM",lower = stronger binding,oxyanion analog dissociation constant,426 nM
"PhoQ, residues 284 288 289 292 302 303 QWQEDG","PhoP, residues 12 14 15 18 19 SGWQI (Escherichia coli, UniProt P23836)","Sort-seq, refers to: YFP reporter",E. coli,"PhoQ-PhoP variant library, with: 10 µM Mg2+","relative to: high Mg2+ state, higher = stronger signaling",fold induction,0.82

# For quick reference, copied from above (sample 1):
Modification,mean fluorescence intensity [a.u.]
2'F-ANA at 2 3 4 9 10 11 13 14 15,231
2'F-ANA at 2 4 6 7 12 15,492
